Experimental data of several laboratories.
Lines come from different studies, so protocols differ.
Organism: HIV-1

The EC90 of `CC(=NNC(=O)CN1c2c(-c3ccccc3)n[nH]c2-c2ccccc2S1(=O)=O)c1cc(Cl)sc1Cl` is reported as 38.8 µM (viral replication; PBMC).
For `Cc1cc(C)cc(NC(C(N)=O)c2c(Cl)cccc2Cl)c1` (centres unmarked), the EC90 was 3.1 µM (viral replication; human PBMC, LAI).
For `O=C(CN1c2c(n[nH]c2-c2cccc(Cl)c2)-c2ccccc2S1(=O)=O)NN=Cc1ccc(F)cc1`, the EC90 was 26.7 µM (viral replication; PBMC).
The EC90 of `Cc1ccc(N2C(=O)CCC2(C#N)c2ccc(OC(C)C)cc2)cc1` (centres unmarked) is reported as over 100 µM (viral replication; human PBMC, LAI).
The EC90 of `Cc1cc(C)cc(C(=O)c2cc(Cl)ccc2OCCn2c3c(c(=O)[nH]c2=O)CCC3)c1` is reported as 0.15 µM (cell-to-cell transmission; MOLT-4/R5 and GHOST(3)R5, CCR5-tropic; CD4-dependent).
`Cc1ccc(NC(C#N)c2ccc(OCc3ccc(Cl)cc3Cl)cc2)cc1` (centres unmarked) has an EC90 of 22.4 µM (viral replication; human PBMC, LAI).
`CC(=NNC(=O)CN1c2c(-c3ccccc3)n[nH]c2-c2ccccc2S1(=O)=O)c1ccncc1` gave an EC90 of over 100 µM (viral replication; PBMC).
The EC90 of `Cc1ccc(N2C(=O)CCC2(C#N)c2ccc(OCc3ccccc3)cc2)cc1` (centres unmarked) is reported as over 100 µM (viral replication; human PBMC, LAI).
`O=C(CN1c2c(n[nH]c2-c2cccc(Cl)c2)-c2ccccc2S1(=O)=O)NN=Cc1cccc(Cl)c1` has an EC90 of over 10 µM (viral replication; PBMC).
`CC(=NNC(=O)CN1c2c(-c3ccccc3)n[nH]c2-c2ccccc2S1(=O)=O)c1nccs1` has an EC90 of over 100 µM (viral replication; PBMC).
The EC90 of `O=C(CN1c2c(n[nH]c2-c2cccc(Cl)c2)-c2ccccc2S1(=O)=O)NN=Cc1cccc([N+](=O)[O-])c1` is reported as over 100 µM (viral replication; PBMC).
`C=C(C)[C@]12C[C@@H](COC(C)=O)[C@@]34O[C@]5(O[C@@H]1[C@@H]3[C@@H]1O[C@]1(CO)[C@@H](O)[C@@]1(O)[C@H]4[C@H]([C@H](C)[C@@H]1OC(=O)c1ccccc1)[C@H](C)CCCCCC[C@H]5O)O2` has an EC90 of under 0.001 µM (viral replication; MT4, NL4-3).
`O=C(CN1c2c(n[nH]c2-c2cccc(Cl)c2)-c2ccccc2S1(=O)=O)NN=Cc1cccc(Br)c1` has an EC90 of over 10 µM (viral replication; PBMC).
For `CC(=NNC(=O)CN1c2c(-c3ccccc3)n[nH]c2-c2ccccc2S1(=O)=O)c1cccs1`, the EC90 was 45.2 µM (viral replication; PBMC).

Repeated from above:
`Cc1ccc(NC(C#N)c2ccc(OCc3ccc(Cl)cc3Cl)cc2)cc1` (centres unmarked) has an EC90 of 22.4 µM (viral replication; human PBMC, LAI).
